{"data": "Results of several laboratories", "note": "Parts stem from different laboratories: compare values within a part only. Substitutions count along the parent as printed.", "UniProt P06213, sequence (whole entry, looked up)": "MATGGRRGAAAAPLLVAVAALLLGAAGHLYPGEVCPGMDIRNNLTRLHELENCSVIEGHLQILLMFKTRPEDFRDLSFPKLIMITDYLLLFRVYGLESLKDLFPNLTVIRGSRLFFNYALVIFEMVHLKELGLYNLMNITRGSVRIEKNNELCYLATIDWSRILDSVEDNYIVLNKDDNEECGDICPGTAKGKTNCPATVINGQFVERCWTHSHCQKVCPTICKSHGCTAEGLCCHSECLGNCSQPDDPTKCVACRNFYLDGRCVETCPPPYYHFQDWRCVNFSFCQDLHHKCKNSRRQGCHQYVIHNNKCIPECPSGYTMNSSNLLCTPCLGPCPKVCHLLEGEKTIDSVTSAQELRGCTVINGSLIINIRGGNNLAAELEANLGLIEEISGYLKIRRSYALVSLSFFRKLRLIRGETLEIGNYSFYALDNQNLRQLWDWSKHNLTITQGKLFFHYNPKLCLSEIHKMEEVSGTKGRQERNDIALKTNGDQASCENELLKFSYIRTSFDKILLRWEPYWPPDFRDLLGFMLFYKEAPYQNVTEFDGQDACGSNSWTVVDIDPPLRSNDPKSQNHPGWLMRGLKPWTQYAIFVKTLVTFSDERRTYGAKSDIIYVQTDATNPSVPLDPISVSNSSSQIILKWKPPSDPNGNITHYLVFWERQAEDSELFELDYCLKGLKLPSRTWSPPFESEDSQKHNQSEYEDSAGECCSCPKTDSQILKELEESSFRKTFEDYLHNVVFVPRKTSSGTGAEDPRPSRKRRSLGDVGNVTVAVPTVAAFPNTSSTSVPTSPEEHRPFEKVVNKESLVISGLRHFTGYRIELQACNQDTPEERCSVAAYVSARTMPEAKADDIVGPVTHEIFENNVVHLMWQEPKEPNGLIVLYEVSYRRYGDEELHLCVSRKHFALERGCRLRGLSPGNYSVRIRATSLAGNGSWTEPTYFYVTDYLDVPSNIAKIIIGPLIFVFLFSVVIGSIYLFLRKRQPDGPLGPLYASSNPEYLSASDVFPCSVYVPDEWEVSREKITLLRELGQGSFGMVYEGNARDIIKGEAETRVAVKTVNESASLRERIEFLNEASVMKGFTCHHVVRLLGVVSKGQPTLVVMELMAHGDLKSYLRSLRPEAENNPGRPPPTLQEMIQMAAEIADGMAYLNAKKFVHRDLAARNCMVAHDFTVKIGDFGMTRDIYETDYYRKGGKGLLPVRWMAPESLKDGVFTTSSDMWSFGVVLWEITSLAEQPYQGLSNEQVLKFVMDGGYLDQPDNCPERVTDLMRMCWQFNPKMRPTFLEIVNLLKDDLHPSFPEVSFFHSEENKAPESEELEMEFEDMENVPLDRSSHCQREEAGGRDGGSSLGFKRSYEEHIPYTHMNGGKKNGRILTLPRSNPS", "UniProt Q16288, sequence (whole entry, looked up)": "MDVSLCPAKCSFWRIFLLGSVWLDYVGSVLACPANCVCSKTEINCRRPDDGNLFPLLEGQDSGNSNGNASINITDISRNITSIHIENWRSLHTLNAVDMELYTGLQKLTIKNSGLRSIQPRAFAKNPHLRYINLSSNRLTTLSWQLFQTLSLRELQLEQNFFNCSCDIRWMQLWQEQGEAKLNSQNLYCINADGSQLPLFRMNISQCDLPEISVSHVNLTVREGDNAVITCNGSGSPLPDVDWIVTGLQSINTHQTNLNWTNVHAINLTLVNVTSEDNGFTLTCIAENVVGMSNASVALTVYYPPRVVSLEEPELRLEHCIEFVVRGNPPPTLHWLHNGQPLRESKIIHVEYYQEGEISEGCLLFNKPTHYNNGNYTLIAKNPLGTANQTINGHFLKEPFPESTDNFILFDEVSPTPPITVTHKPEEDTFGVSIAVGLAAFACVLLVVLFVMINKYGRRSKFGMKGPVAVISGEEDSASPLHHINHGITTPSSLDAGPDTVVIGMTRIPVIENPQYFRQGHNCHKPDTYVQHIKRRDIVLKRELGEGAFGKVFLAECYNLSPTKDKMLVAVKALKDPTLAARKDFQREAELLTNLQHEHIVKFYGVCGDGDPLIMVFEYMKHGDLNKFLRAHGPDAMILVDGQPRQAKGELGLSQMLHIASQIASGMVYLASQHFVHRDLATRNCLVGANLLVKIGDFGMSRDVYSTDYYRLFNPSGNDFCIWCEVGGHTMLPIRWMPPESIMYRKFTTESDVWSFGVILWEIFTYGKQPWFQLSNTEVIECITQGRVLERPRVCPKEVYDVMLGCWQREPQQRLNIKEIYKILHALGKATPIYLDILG", "UniProt P42336, sequence (whole entry, unmodified, looked up)": "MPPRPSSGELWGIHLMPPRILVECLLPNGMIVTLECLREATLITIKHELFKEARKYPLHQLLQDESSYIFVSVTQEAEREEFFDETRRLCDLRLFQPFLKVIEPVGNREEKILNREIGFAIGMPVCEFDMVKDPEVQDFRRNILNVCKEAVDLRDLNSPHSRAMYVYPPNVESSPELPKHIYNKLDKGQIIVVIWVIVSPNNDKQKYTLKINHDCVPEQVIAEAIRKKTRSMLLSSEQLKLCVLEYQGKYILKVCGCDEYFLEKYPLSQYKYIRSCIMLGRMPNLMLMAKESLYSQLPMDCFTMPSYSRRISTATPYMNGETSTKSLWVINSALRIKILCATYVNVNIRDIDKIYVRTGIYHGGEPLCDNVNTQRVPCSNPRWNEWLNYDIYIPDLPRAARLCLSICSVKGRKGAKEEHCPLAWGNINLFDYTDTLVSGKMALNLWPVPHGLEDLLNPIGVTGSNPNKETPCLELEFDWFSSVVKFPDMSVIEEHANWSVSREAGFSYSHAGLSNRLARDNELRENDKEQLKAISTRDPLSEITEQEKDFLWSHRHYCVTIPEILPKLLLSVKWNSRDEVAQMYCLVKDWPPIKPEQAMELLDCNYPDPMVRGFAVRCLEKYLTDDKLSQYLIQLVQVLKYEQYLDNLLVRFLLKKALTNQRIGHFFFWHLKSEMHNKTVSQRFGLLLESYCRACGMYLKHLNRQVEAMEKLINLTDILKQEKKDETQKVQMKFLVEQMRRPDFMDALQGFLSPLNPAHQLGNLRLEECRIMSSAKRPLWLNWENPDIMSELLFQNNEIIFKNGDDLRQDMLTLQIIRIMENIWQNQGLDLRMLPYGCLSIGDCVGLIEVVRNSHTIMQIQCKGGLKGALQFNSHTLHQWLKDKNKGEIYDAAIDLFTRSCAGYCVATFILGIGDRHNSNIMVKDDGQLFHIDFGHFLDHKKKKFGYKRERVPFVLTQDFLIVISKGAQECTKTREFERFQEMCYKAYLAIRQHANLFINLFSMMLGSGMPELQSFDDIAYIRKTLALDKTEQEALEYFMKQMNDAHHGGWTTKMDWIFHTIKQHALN", "UniProt P43403, sequence (whole entry, looked up)": "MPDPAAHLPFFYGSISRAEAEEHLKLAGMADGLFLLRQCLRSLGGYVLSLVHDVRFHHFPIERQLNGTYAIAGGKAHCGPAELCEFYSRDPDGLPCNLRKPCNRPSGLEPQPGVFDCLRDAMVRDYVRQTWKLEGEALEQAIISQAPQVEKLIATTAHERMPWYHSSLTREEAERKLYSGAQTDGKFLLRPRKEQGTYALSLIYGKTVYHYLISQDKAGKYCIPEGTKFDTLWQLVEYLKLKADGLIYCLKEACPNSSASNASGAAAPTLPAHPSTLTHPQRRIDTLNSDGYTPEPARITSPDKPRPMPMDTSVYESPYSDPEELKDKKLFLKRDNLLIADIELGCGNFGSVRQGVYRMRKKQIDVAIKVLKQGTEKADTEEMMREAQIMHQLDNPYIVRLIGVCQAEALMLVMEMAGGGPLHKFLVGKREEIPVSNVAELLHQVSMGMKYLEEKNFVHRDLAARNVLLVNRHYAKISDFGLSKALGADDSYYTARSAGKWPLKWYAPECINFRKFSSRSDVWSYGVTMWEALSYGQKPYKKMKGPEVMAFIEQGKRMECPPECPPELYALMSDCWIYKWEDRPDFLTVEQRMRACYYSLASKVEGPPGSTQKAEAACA", "UniProt Q9NY57, sequence (whole entry, looked up)": "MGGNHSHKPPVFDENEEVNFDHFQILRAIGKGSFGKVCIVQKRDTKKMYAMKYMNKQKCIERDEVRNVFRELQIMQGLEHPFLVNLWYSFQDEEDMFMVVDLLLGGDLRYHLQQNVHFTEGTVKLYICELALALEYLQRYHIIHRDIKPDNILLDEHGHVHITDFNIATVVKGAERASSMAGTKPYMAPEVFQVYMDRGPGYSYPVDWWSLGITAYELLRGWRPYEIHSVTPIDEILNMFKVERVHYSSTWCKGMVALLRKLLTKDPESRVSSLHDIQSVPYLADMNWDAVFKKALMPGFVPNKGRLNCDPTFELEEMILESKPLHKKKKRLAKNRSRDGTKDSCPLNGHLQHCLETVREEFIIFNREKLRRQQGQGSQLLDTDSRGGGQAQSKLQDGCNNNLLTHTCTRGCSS"}
{"data": "Sample 1", "target": "PABPC1L2, full length, GST fusion (mouse, UniProt A0ABA7IW68)", "method": "RNAcompete", "molecule type": "RNA", "medium": "in vitro", "tested at": "20 nM", "setting": "7-mer, probes averaged, single round", "relative to": "mean of 7-mers", "reading": "higher = stronger binding", "Target sequence (chain)": "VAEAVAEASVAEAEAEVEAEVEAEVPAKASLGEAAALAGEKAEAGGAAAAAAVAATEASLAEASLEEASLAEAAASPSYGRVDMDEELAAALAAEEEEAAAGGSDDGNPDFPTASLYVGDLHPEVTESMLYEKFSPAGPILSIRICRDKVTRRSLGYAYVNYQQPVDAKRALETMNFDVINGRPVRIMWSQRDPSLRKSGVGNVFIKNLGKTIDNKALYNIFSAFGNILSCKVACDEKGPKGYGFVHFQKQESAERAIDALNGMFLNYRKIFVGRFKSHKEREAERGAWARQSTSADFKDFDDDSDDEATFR"}
{"Strand": "ACUUACG", "7-mer Z-score": -0.146}
{"Strand": "AAAGCAU", "7-mer Z-score": 0.914}
{"Strand": "UGGGGCU", "7-mer Z-score": 0.285}
{"Strand": "AGGGGAU", "7-mer Z-score": 0.428}
{"Strand": "UUGUUGU", "7-mer Z-score": -0.528}
{"Strand": "CGGCUCA", "7-mer Z-score": -0.126}
{"Strand": "AUUGUCG", "7-mer Z-score": -0.19}
{"Strand": "AAAUGGA", "7-mer Z-score": 1.4}
{"data": "Sample 2", "target": "CCND1, cyclin fold, Cln2 fusion (human)", "method": "yeast growth competition, sequencing", "medium": "yeast", "setting": "weak parent motif", "relative to": "not given", "reading": "higher = stronger binding", "starting sequence": "CDC25A docking peptide (human); PPHRRRLLFACSP; partner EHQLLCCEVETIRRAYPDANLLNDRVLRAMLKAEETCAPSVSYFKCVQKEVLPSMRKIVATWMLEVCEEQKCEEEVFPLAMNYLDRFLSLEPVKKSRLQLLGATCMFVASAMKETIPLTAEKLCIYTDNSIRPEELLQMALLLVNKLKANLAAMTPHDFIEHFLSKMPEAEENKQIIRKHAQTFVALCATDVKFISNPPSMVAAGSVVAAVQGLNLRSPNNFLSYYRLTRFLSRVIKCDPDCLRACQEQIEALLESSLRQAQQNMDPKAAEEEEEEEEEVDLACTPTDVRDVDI"}
{"Variant": "A10Q", "normalised enrichment score": 0.324}
{"Variant": "R5C", "normalised enrichment score": -0.0887}
{"Variant": "R4V", "normalised enrichment score": 0.512}
{"Variant": "A10D", "normalised enrichment score": -0.021}
{"Variant": "S12I", "normalised enrichment score": 0.481}
{"Variant": "P2E", "normalised enrichment score": 0.358}
{"Variant": "F9C", "normalised enrichment score": -0.33}
{"Variant": "L7K", "normalised enrichment score": 0.255}
{"data": "Sample 3", "Compound": "CN(c1ccnc(CNc2nc(Nc3ccc4c(c3)CC(=O)N4)ncc2C(F)(F)F)n1)S(C)(=O)=O", "tested at": "1 µM"}
{"target": "CDC42BPG (Homo sapiens, UniProt Q6DT37)", "method": "competition binding", "remaining binding [%]": 93}
{"target": "NTRK3 (Homo sapiens, UniProt Q16288)", "effect on": "cell-free assay", "method": "competition with immobilised ligand", "remaining binding [%]": 45}
{"target": "PRKCI (Homo sapiens, UniProt P41743)", "effect on": "cell-free assay", "method": "competition with immobilised ligand", "remaining binding [%]": 55}
{"target": "FRK (Homo sapiens, UniProt P42685)", "effect on": "cell-free assay", "method": "competition with immobilised ligand", "remaining binding [%]": 93}
{"target": "STK32B (Homo sapiens, UniProt Q9NY57)", "effect on": "cell-free assay", "method": "competition with immobilised ligand", "remaining binding [%]": 100}
{"target": "Insulin receptor (INSR, Homo sapiens, UniProt P06213)", "effect on": "cell-free assay", "method": "competition with immobilised ligand", "remaining binding [%]": 100}
{"target": "CAMK1G (Homo sapiens, UniProt Q96NX5)", "effect on": "cell-free assay", "method": "competition with immobilised ligand", "remaining binding [%]": 95}
{"target": "NUAK1 (Homo sapiens, UniProt O60285)", "effect on": "cell-free assay", "method": "competition with immobilised ligand", "remaining binding [%]": 21}
{"target": "STK17A (Homo sapiens, UniProt Q9UEE5)", "effect on": "cell-free assay", "method": "competition with immobilised ligand", "remaining binding [%]": 11}
{"target": "PIK3CA (Homo sapiens, UniProt P42336, I800L)", "effect on": "cell-free assay", "method": "competition with immobilised ligand", "remaining binding [%]": 84}
{"target": "ZAP70 (Homo sapiens, UniProt P43403)", "effect on": "cell-free assay", "method": "competition with immobilised ligand", "remaining binding [%]": 61}
{"target": "FLT3 (Homo sapiens, UniProt P36888, F691L/ITD)", "effect on": "cell-free assay", "method": "competition with immobilised ligand", "remaining binding [%]": 0}
{"target": "EIF2AK1 (Homo sapiens, UniProt Q9BQI3)", "effect on": "cell-free assay", "method": "competition with immobilised ligand", "remaining binding [%]": 87}
{"target": "COQ8A (Homo sapiens, UniProt Q8NI60)", "effect on": "cell-free assay", "method": "competition with immobilised ligand", "remaining binding [%]": 79}
{"data": "Single results of other studies", "target": "Beta-1 adrenergic receptor (ADRB1, Homo sapiens, UniProt P08588)", "mode": "antagonist", "UniProt P08588, sequence (whole entry, looked up)": "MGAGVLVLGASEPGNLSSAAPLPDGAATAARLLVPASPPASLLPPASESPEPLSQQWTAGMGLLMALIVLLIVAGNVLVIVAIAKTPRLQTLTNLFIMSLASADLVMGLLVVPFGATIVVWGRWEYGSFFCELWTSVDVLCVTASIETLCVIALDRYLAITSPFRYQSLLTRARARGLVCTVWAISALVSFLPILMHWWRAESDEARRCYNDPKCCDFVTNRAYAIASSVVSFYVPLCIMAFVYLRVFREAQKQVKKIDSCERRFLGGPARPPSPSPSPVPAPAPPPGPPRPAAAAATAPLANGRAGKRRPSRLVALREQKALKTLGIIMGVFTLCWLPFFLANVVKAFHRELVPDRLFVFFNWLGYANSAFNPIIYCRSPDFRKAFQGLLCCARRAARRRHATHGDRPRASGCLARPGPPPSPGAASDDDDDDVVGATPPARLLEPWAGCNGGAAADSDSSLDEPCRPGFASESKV"}
{"SMILES": "COc1ccc(CC(=O)Nc2ccc([C@@H](O)[C@H]3COCC(=O)N3Cc3ccccc3OC)cc2)cc1", "IC50 [µM]": "≥ 100"}
{"SMILES": "CCOC(=O)COc1ccc2c(c1)C[C@@H](NC[C@H](O)c1cccc(Cl)c1)CC2", "IC50 [µM]": "≥ 100"}
{"note": "Some of these lines once more (sample 3):"}
{"target": "COQ8A (Homo sapiens, UniProt Q8NI60)", "effect on": "cell-free assay", "method": "competition with immobilised ligand", "remaining binding [%]": 79}
{"target": "CDC42BPG (Homo sapiens, UniProt Q6DT37)", "method": "competition binding", "remaining binding [%]": 93}
{"target": "FRK (Homo sapiens, UniProt P42685)", "effect on": "cell-free assay", "method": "competition with immobilised ligand", "remaining binding [%]": 93}
